Measurements of several laboratories.
Every numbered part comes from another study and shows a few of its results, in no order. Substitutions count along the parent as printed.

Block 1 — target: CCND2, cyclin fold, Cln2 fusion (human); technique: yeast growth competition, sequencing; sample: yeast; notes: weak parent motif; baseline: not given; reading: higher = stronger binding
Parent: GMNC docking peptide (human); KNAKRNLSSEFAN; partner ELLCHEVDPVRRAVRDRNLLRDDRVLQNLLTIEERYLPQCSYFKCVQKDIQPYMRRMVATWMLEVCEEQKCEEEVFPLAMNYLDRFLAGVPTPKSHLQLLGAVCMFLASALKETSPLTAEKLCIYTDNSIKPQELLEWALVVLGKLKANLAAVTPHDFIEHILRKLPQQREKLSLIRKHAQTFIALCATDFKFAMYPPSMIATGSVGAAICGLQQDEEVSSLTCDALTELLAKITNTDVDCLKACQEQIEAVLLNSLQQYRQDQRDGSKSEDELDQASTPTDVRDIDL
Variant | normalised enrichment score
KNAKRKLSSEFAN [N6K] | -0.0494
KNAKRNLMSEFAN [S8M] | 0.443
KNALRNLSSEFAN [K4L] | 0.244
KNAKRLLSSEFAN [N6L] | -0.515
KNAKRNLGSEFAN [S8G] | 0.291
KWAKRNLSSEFAN [N2W] | 0.506
KNAKKNLSSEFAN [R5K] | 0.206

Block 2 — technique: RNA Bind-n-Seq; molecule type: RNA; sample: in vitro; tested at: 365 nM; baseline: no-protein control; reading: higher = stronger binding
Target: RNA binding protein fox-1 homolog 2, RRM domain, GST-SBP tag (RBFOX2, Homo sapiens, UniProt O43251-10, residues 100-194)
Notes: natural RNA segment, single round, ends assumed
Shared flanks, not repeated: GGGAGUUCUACAGUCCGACGAUC … UGGAAUUCUCGGGUGCCAA
Residues (chain): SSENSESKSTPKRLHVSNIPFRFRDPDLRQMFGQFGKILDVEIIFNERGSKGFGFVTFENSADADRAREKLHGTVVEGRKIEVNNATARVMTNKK
Sequence | RBNS enrichment (R)
AGUUGAUGAAGGAGUUUUUUUUAACCUGUUUAUAUAAUUUUGCAGCAGAAGCCAAAUUUUUUGUAUAUUAAAGCACCAAAUUCAUGUACAGCAUGCAUCACGGAUCAAUA | 3.05
GAUCAAUGCAAUAUGGGAAUAAUCAGUGAGGUUGGCUUUUUUCCCUACUGUUAAAUAGCAUUUGUCUAAUUGCUAAUAAGCCUGUCGUUACCAAAUUUUAUAUAAGAAUG | 0.556
GCACCCUGCGCACCCAGGAGGGCCUUUUAUGUUUUGAUUCAUAUAUAAACACGAUGUUAUUUUUCUUUACAAAAGCAAAAAAAUAAAAACCGUACCAACCUUUGACUUGU | 0.711
AGGAGUGGGUAUCUCUGGCAGCAUGGGCUGCCCGCAGGCUGGGCAGUGGGUCCCUCCACACCUACCUCAGGGAGCCAGUGUGCGGGCGGGAACUCCACAGCAUGCCUGUU | 3.5
UAGAACUUCAAAUGCGAUGGUCUUGACUAUUAGACCAGAUUUAGUAGCUCCAUAUCUAAGAUUUUUCUACCUGCCCCUCUUCAGUACAGGGAUGGCUGGCUGCUCAACAC | 0.418
GGCCACCAGGCUCCGAGGGGCCGUGGUGACUCUUGAUCAAAGAGCACAGUGAACUGUCCCUUCUGAGUCUCCCUUUUCUACAGUUGAUAUAUUUGUAACUGGUACAAGAU | 0.235

Block 3 — technique: universal PBM; molecule type: double-stranded DNA, one strand shown; sample: in vitro; tested at: not given; reading: higher = stronger binding
Target: Sal-like protein 4, full length isoform B (SALL4, Homo sapiens, UniProt Q9UJQ4-2, residues 1-616)
Notes: 8-mer, flanks averaged, mean of replicates
Construct (chain): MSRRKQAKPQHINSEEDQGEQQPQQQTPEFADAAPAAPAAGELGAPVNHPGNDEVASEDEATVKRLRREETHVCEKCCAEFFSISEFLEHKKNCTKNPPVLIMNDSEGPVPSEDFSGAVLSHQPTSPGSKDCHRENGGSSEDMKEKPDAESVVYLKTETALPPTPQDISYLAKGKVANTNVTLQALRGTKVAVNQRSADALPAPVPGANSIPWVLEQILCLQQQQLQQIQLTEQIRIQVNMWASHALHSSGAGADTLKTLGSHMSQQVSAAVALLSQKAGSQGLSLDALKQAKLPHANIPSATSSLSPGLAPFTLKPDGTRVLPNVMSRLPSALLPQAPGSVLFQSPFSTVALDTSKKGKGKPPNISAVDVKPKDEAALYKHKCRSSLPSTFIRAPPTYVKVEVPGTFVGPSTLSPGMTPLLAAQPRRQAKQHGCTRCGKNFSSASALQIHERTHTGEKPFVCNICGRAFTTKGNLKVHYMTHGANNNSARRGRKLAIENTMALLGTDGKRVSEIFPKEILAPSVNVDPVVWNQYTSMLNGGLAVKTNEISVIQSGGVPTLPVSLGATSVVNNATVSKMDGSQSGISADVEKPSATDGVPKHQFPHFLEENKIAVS
Sequence | E-score
CTTATCGC | -0.123
CGGTGAGA | -0.139
ATCCGATC | -0.0343
CAGGGTGA | -0.111
TAGTGGGA | -0.0917

Mixed results
Substance | target | test | test system | conditions | how to read | endpoint | value
PhoQ, residues 284 288 289 292 302 303 SSLVEF | PhoP, residues 12 14 15 18 19 GQAIL (Escherichia coli, UniProt P23836) | Sort-seq, refers to: YFP reporter | E. coli | PhoQ-PhoP variant library, together with: 10 µM Mg2+ | baseline: high Mg2+ state, higher = stronger signaling | fold induction | 11.5

Repeated from above (block 3):
Sequence | E-score
CTTATCGC | -0.123
CAGGGTGA | -0.111
CGGTGAGA | -0.139
